# Measurements pooled from the literature.
# Parts stem from different laboratories: compare values within a part only. Substitutions count along the parent as printed.

# Sample 1
# Target: TAR DNA-binding protein 43, full length, His tag (TARDBP, Homo sapiens, UniProt Q13148, residues 1-414)
# Technique: RNA Bind-n-Seq
# Form: RNA
# Sample: in vitro
# Tested at: 20 nM
# Setting: 6-mer, flanks averaged, single round
# Added: 150 mM KCl
# Reference: input library
# Reading: higher = stronger binding
Sequence,6-mer enrichment (R)
CAUGAA,0.739
AUUGUC,0.57
GAGAUC,0.811
UUCAGG,0.893
AAUUCC,0.579
UCCCAU,0.609

# Sample 2
# Molecule: PhoQ, residues 284 288 289 292 302 303 NLCILV
# Technique: Sort-seq
# Refers to: YFP reporter
# Sample: E. coli
# Setting: PhoQ-PhoP variant library
# Added: 10 µM Mg2+
# Reference: high Mg2+ state
# Reading: higher = stronger signaling
target,fold induction
"PhoP, residues 12 14 15 18 19 SHWTV (Escherichia coli, UniProt P23836)",12.8
"PhoP, residues 12 14 15 18 19 STHWV (Escherichia coli, UniProt P23836)",18.9
"PhoP, residues 12 14 15 18 19 QYCSL (Escherichia coli, UniProt P23836)",14.8

# Sample 3
# Target: Sal-like protein 4, full length isoform A (SALL4, Homo sapiens, UniProt Q9UJQ4, residues 1-1053)
# Chain of UniProt Q9UJQ4 (whole entry, looked up): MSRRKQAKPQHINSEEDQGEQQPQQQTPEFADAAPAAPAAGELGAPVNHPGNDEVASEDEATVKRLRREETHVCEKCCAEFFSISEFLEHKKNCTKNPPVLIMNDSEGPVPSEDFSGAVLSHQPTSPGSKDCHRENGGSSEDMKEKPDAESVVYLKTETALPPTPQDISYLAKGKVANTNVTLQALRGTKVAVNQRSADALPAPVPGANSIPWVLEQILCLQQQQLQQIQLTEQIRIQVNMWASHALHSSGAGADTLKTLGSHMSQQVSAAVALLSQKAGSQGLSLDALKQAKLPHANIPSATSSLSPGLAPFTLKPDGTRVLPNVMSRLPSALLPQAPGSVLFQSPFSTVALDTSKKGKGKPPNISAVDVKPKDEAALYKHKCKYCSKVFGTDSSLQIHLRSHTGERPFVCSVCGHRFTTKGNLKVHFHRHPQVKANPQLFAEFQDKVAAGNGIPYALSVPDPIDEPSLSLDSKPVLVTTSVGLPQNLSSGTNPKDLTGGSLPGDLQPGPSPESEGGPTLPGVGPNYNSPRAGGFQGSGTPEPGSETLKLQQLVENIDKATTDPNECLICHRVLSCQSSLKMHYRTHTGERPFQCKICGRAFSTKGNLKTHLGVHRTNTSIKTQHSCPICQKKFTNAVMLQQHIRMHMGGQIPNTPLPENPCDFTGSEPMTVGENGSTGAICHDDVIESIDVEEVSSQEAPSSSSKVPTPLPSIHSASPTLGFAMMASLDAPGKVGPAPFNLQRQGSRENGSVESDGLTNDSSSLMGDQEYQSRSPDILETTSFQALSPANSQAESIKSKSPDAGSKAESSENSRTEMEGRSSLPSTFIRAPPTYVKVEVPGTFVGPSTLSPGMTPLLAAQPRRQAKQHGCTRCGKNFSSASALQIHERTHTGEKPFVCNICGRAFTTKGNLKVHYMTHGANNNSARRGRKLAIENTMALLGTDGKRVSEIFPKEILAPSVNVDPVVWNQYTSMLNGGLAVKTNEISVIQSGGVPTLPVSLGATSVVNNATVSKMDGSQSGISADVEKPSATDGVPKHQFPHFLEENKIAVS
# Technique: universal PBM
# Form: double-stranded DNA, one strand shown
# Sample: in vitro
# Tested at: 600 nM
# Setting: 8-mer, flanks averaged, mean of replicates
# Reading: higher = stronger binding
Sequence,E-score
AGCGTCAG,-0.0843
CTTCAATC,0.103
ATAAACGG,0.25
CACCGCGC,-0.394
CGTCTGGA,-0.218
AGGATGAT,0.0727
AGCGAGTC,-0.197

# Sample 4
# Target: ABI1, truncated, D143A, DHFR fusion (Arabidopsis thaliana)
# Technique: DHFR PCA, deep sequencing
# Sample: yeast
# Setting: methotrexate growth selection, single substitutions
# Added: (+)-ABA 200 µM
# Reference: wild-type fitted maximum
# Reading: higher = stronger binding
# Parent: PYL1, truncated, DHFR fusion (Arabidopsis thaliana); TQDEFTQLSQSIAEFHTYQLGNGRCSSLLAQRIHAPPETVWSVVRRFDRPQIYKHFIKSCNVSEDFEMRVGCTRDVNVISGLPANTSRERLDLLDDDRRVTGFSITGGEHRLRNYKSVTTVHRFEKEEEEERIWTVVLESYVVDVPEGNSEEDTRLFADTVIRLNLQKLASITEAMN
Change,relative binding score [%]
D48K,40.6
L8V,88.1
S11R,83.6
G108V,5.81
N61G,92.6
P50L,-2.56
R74G,4.21
K54A,-6.22

# Some of these lines once more (sample 4):
Change,relative binding score [%]
S11R,83.6
G108V,5.81
N61G,92.6
